Experimental data from different studies.
Protocols differ between the studies behind these lines. ± marks the error that the study gave.

CC(C)(C)[C@H](NC(=O)C(F)(F)F)C(=O)N1C[C@H]2[C@@H]([C@H]1C(=O)N[C@H](C#N)C[C@@H]1CCNC1=O)C2(C)C
half-life (mouse liver microsomes; microsomes 0.5 mg/mL): 0.247 h

O=C(C[18F])NCCCCCC(=O)Nc1ccccc1
half-life (rhesus macaque, blood plasma; intravenous, 6.07 mCi, fast phase, first 2.5 min): 0.00694 h

C[N+]1=C(C=CC2=C(OC(=O)CCCc3ccc(N(CCCl)CCCl)cc3)C(=CC=C3N(CCCCCC(=O)O)c4ccccc4C3(C)C)CCC2)C(C)(C)c2ccccc21
half-life (ester linker cleavage; RPMI-1640 with 10% FBS; 0.6 µM, pH 7.5, 37 °C, 2.5% DMSO): ~6.7 h

O=c1[nH]c(Cc2ccccn2)nc2c1cnn2C1CCOCC1
half-life (healthy men, extensive metabolizers, plasma; oral, 25 mg single dose, tablet, geometric mean): 1.23 h

CCCCCCCCCCCCCCCC(=O)NCCCC[C@H](NC(=O)[C@H](CCCCN)NC(=O)[C@H](CCCCN)NC(=O)[C@@H]1CCCN1C(=O)CNC(=O)[C@H](CC(C)C)NC(=O)[C@H](CC(C)C)NC(=O)[C@H](Cc1ccc(O)cc1)NC(=O)CNC(=O)[C@H](C)NC(=O)[C@H](CO)NC(=O)[C@H](CC(N)=O)NC(=O)[C@H](CC(C)C)NC(=O)[C@@H](NC(=O)[C@@H](N)Cc1c[nH]c2ccccc12)[C@@H](C)O)C(=O)N[C@@H](CCCCN)C(N)=O
half-life (25% rat serum; 20 µM, pH 7.5, 37 °C): 10 h

CCCCCOc1ccc(-c2cc(-c3ccc(C(=O)N[C@H]4C[C@@H](O)[C@@H](O)NC(=O)[C@@H]5[C@@H](O)[C@@H](C)CN5C(=O)[C@H]([C@H](O)CC(N)=O)NC(=O)[C@H]([C@H](O)[C@@H](O)c5ccc(O)c(OS(=O)(=O)O)c5)NC(=O)[C@@H]5C[C@@H](O)CN5C(=O)[C@H]([C@@H](C)O)NC4=O)cc3)no2)cc1
half-life (infants below 1000 g, plasma; intravenous infusion, 10 mg/kg/day, day 4, 1 h infusion): 10.6 h

CC[C@H](C)[C@H](NC(=O)[C@H](CCCNC(=N)N)NC(=O)[C@H](CC(C)C)NC(=O)[C@@H](N)Cc1ccccc1)C(=O)N[C@@H](CCCNC(=N)N)C(=O)N1CCC[C@H]1C(=O)N[C@@H](CCCCN)C(=O)O
half-life (rat plasma; added: captopril 10 µM): 0.6 h

Dendroaspis natriuretic peptide
half-life (cGMP elevation; human kidney membranes; 37 °C): ~2.65 h

Cc1ncc2n1-c1ccc(Cl)cc1C(c1ccccc1F)=NC2
half-life (healthy male, plasma; oral, 7.5 mg, alone, arithmetic mean, day 1): 4.5 h

COc1ccc(OC(=O)NC2CCCCC2)cc1-c1ccccc1
half-life (10 mM borate buffer; pH 9.0, 37 °C, chemical stability): 1.3 ± 0.0667 h

N=C(N)NCCC[C@@H](NC(=O)[C@@H](N)Cc1ccccc1)C(=O)N[C@@H](Cc1ccccc1)C(=O)N[C@@H](CCCCN)C(N)=O
half-life (early Huntington's disease patients, plasma; subcutaneous, 25 mg, day 7): 4.14 h

Cc1ncc2n1-c1ccc(Cl)cc1C(c1ccccc1F)=NC2
half-life (healthy volunteers, plasma; oral, 8 mg, CYP3A probe, before Echinacea, geometric mean): 5.6 h

Nc1ccc(OC(=O)NC2CCCCC2)cc1-c1ccccc1
half-life (rat plasma 80% in PBS; 1 µM, pH 7.4, 37 °C): 13.1 ± 0.467 h

NCC(=O)N[C@@H](CO)C(=O)N[C@@H](CO)C(=O)N[C@@H](CCC(N)=O)C(=O)N[C@@H](CO)C(=O)N[C@@H](CO)C(=O)NCC(=O)N[C@@H](Cc1c[nH]c2ccccc12)C(=O)NCC(=O)N[C@@H](CO)C(=O)N[C@@H](CO)C(=O)N[C@@H](CCC(N)=O)C(=O)N[C@@H](CO)C(=O)N[C@@H](CO)C(=O)NCC(N)=O
half-life (RP-HPLC and LC-MS; human serum; 50% serum, 37 °C): < 0.5 h

O=S(=O)([O-])[O-].[O]=[V+2]
half-life (item: total vanadium; human, serum; oral, 25 mg V/day as VOSO4): 79.2 h

C#CCn1c(C)c(C(=O)C(=O)NC(C)(C)C#C)c(C)c1C(=O)Nc1ccc(F)c(F)c1
half-life (human liver microsomes; 1 µM, added: ritonavir 3 µM): 0.317 h

CN(C)CCc1c[nH]c2ccccc12
half-life (human hepatocytes; 3.1 µM, added: 100 nM clorgyline and deprenyl): 1.54 h

CC(C)C[C@H](NC(=O)[C@H](CCC(=O)O)NC(=O)[C@H](CCC(=O)O)NC(=O)[C@H](CC(=O)O)NC(=O)[C@H](CCC(=O)O)NC(=O)[C@H](CCC(=O)O)NC(=O)[C@H](CCC(=O)O)NC(=O)[C@@H](N)CC(=O)O)C(=O)O
half-life (human brain homogenate; 1 µM, room temperature): > 2 h

CC12C(=O)C(C)(C(c3ccccc3)=C1c1ccccc1)C1(Br)C(=O)N(CCNCCN)C(=O)C21.O=C(O)C(F)(F)F.O=C(O)C(F)(F)F (stereo not shown)
half-life (CO release, HPLC; TRIS-sucrose buffer; pH 7.4, 4 to 5 °C): 32 h

Repeated from above:
CC(C)(C)[C@H](NC(=O)C(F)(F)F)C(=O)N1C[C@H]2[C@@H]([C@H]1C(=O)N[C@H](C#N)C[C@@H]1CCNC1=O)C2(C)C
half-life (mouse liver microsomes; microsomes 0.5 mg/mL): 0.247 h

O=C(C[18F])NCCCCCC(=O)Nc1ccccc1
half-life (rhesus macaque, blood plasma; intravenous, 6.07 mCi, fast phase, first 2.5 min): 0.00694 h
